Assay results of several laboratories.
Compare with care: the assays were run in different laboratories. ± gives the spread as reported.

| SMILES | test | system | setting | scale | endpoint | result |
| --- | --- | --- | --- | --- | --- | --- |
| CNC(=O)[C@H](CCC(=O)NCCCC[C@@H]1NC(=O)[C@@H](Cc2ccccc2)NC(=O)[C@H](CC(=O)O)NC(=O)CNC(=O)[C@H](CCCNC(=N)N)NC1=O)NC(=O)CN1CCN(CC(=O)O)CCN(CC(=O)O)CCN(CC(=O)O)CC1 [gallium-68 labelled] |  | female BALB/c nude mice, SK-RC-52 xenograft, tumour | 0.5 µg, 2 h post injection, added: excess unlabelled DOTA-E-[c(RGDfK)]2 50 µg |  | radioactivity concentration | decreased |
| C[C@]12CC[C@H](O)CC1CCC1C2[C@H](O)C(=O)[C@]2(C)[C@@H](c3ccc(=O)oc3)CC[C@]12O (stereo partly drawn) | sulfation, substrate | guinea pig liver cytosol | pH 7.4 |  | Km | 19.3 ± 1.6 µM |
| CC(C)[C@H](NC(=O)[C@H](Cc1c[nH]c2ccccc12)NC(=O)[C@H](Cc1ccccc1)NC(=O)[C@@H](NC(=O)[C@@H](NC(=O)[C@H](CCCCN)NC(=O)[C@@H](N)CCCCN)C(C)C)C(C)C)C(=O)N[C@@H](CCCCN)C(=O)N[C@@H](Cc1ccccc1)C(=O)N[C@@H](CCCCN)C(N)=O | ELISA | mouse, blood | intravenous, 500 µg/kg, 5 days |  | IL-6 level | 0.59 ± 0.04 ng/mL |
| CC(=O)OC1O[C@@H]2O[C@@]3(C)CC[C@H]4[C@H](C)CCC([C@H]1C)[C@@]24OO3 (stereo partly drawn) |  | Tg(fli1:EGFP) zebrafish embryos | 0.1 µg/mL, up to 48 hpf |  | dead embryos | 1 count |
| CN(C)C(CNC(=O)Nc1cc(C(F)(F)F)ccc1N1CCOCC1)c1ccncc1 (stereo not drawn) |  | mouse, serum | intraperitoneal, 360 mg/kg single dose |  | serum glucose | 259 mg/dL |
| CCCC[C@H]1C(=O)N(C)[C@@H](CCCC)C(=O)N[C@@H](CCCNC(=O)CN2CCN(CC(=O)O)CCN(CC(=O)O)CCN(CC(=O)O)CC2)C(=O)N[C@H](C(=O)NCC(N)=O)CSCC(=O)N[C@@H](Cc2ccc(O)cc2)C(=O)N(C)[C@@H](C)C(=O)N[C@@H](CC(N)=O)C(=O)N2CCC[C@H]2C(=O)N[C@@H](Cc2c[nH]cn2)C(=O)N[C@@H](CC(C)C)C(=O)N(C)CC(=O)N[C@@H](Cc2c[nH]c3ccccc23)C(=O)N[C@@H](CO)C(=O)N[C@@H](Cc2c[nH]c3ccccc23)C(=O)N1C [gallium-68 labelled] | static PET | NOD/SCID mice, CHO-hPD-L1 xenograft, CHO-hPD-L1 tumour | intravenous, 1 h post injection, after two PBS treatments |  | tumour uptake | 6 ± 1.15 %ID/g |
| COc1cc(C(=O)NCCOCCOCCOCCNC(=O)c2ccc([18F])nc2)ccc1NC(=O)C1NC(CC(C)(C)C)C(C#N)(c2ccc(Cl)cc2F)C1c1cccc(Cl)c1F (stereo not drawn) |  | BALB/c mouse, plasma | 30 min | relative to: plasma radioactivity | polar metabolites | ~41% |
| CC(C)[C@H](NC(=O)CNC(=O)[C@H](CCC(N)=O)NC(=O)[C@H](C)N)C(=O)O | severe intensity | human | 30 mg/kg, 3 days, thrice daily dosing |  | subjects with adverse events | 0% |
| CSCC[C@H](NC(=O)CNC(=O)[C@H](CC(=O)O)NC(=O)[C@@H](NC(=O)[C@@H](NC(=O)[C@@H](NC(=O)CNC(=O)[C@H](CCC(N)=O)NC(=O)[C@H](CCSC)NC(=O)[C@H](CC(=O)O)NC(=O)[C@H](C)NC(=O)[C@H](C)NC(=O)[C@@H](NC(=O)[C@H](CO)NC(=O)[C@@H](N)CC(C)C)[C@@H](C)O)C(C)C)C(C)C)[C@@H](C)O)C(=O)N[C@@H](C)C(=O)N[C@@H](CO)C(=O)NCC(=O)N[C@@H](CC(C)C)C(=O)N[C@@H](CC(=O)O)C(=O)N[C@@H](CCCCN)C(=O)N[C@@H](CC(=O)O)C(=O)N[C@@H](Cc1ccc(O)cc1)C(=O)N[C@@H](CC(C)C)C(=O)N[C@@H](CCCCN)C(=O)N1CCC[C@H]1C(=O)N[C@@H](CC(=O)O)C(=O)N[C@@H](CC(=O)O)C(=O)O |  | p53-positive advanced solid tumour patients | dose not given | relative to: all events | probably drug-related adverse events | 8% |
| O=C1Nc2ccccc2/C1=N\Nc1nnc2n1N=C(c1ccc(Cl)cc1)CS2 |  | chick embryo, chorioallantoic membrane | 40 µM |  | toxicity | toxic |
| O=C(NCCNCCO)c1cn(Cc2ccccc2)c2cc(OCc3ccc(C(F)(F)F)cc3)c(Cl)cc2c1=O | metabolic stability | human, liver microsomes | 1 µM |  | microsomal CLint | < 11.6 µL/min/mg |
| N=C(N)NCc1ccc(C(=O)NCCCC[C@H](NC(=O)N[C@@H](CCC(=O)O)C(=O)O)C(=O)O)cc1[131I] |  | SCID mouse, PC-3 xenografts, liver | 1 h |  | tissue uptake | 8.27 ± 2.65 %ID/g |
| CSCC[C@H](NC(=O)[C@H](CC(N)=O)NC(=O)[C@@H](N)Cc1ccccc1)C(=O)N[C@@H](CCC(N)=O)C(=O)N[C@@H](C)C(=O)N[C@@H](CCC(N)=O)C(=O)N[C@@H](CCCNC(=N)N)C(=O)N[C@@H](CCCNC(=N)N)C(=O)N[C@@H](Cc1ccccc1)C(=O)N[C@@H](Cc1ccc(O)cc1)C(=O)N[C@@H](CCC(=O)O)C(=O)N[C@@H](C)C(=O)N[C@@H](CC(C)C)C(=O)N[C@@H](Cc1c[nH]cn1)C(=O)N[C@@H](CC(=O)O)C(=O)NCC(=O)NCC(=O)NCC(=O)NCC(=O)N[C@@H](CO)C(=O)N[C@@H](C)C(=O)N[C@@H](CCC(=O)O)C(=O)N[C@@H](C)C(=O)N[C@@H](CCC(=O)O)C(=O)N[C@@H](C)C(=O)N[C@@H](CCCCN)C(=O)N[C@@H](C)C(=O)N[C@@H](CCCCN)C(=O)N[C@@H](C)C(=O)N[C@@H](CCC(=O)O)C(=O)N[C@@H](C)C(=O)N[C@@H](CCC(=O)O)C(=O)N[C@@H](C)C(=O)N[C@@H](CCCCN)C(=O)N[C@@H](C)C(=O)N[C@@H](CCCCN)C(=O)O | TEM | PBS | 0.05 mg/mL |  | fibril width, first population | 56.3 ± 18.1 nm |
| CCCCCCCCCCCCCCC(=O)O.O=C1CCCC2C3CCCN4CCCC(CN12)C34 (stereo not drawn) | shake-flask | simulated body fluid | pH 7.4, 37 °C |  | log octanol-water partition coefficient | 0.93 |
| O=c1cc(-c2ccccc2)oc2c(Br)c(O)c(O)c(O)c12 |  | C57BL/6 mouse, plasma | oral, 50 mg/kg, single dose |  | MRT(0-inf) | 5.7 h |
| O=C(O)[c-]1cccc1.O=C(Oc1ccc(-n2cccc2)cc1)[c-]1cccc1.[Fe+2] | cyclic voltammetry | acetonitrile |  | relative to: Ag/AgCl | Epc | 901 mV |
| CC[C@H](C)C(=O)N1CCC(NC(=O)Nc2ccc(OC(F)(F)F)c(F)c2)CC1 |  | healthy volunteers | oral, 8 mg single dose |  | subjects with palpitations TEAE | 0% |
| CCCS(=O)(=O)c1ccc2[nH]c(NC(=O)OC)nc2c1 |  | human liver microsomes | 1 µM, 30 min, 0.5 mg/mL protein |  | percent metabolized | 24.3% |
| CCCCCCCC/C=C\CCCCCCCCOP(O)(O)=S.N |  | mouse, female, irradiated | sc, dose not given, 15.6 Gy partial-body, dosed 24 h after |  | AUC(0-inf) | 1590 ng·h/mL |
| COc1cc(NC(=O)C(=O)c2c(C)n(Cc3ccc(Cl)cc3)c3ccc(C)cc23)ccn1 |  | cynomolgus monkey, male, plasma | oral, 10 mg/kg, range of individual values |  | oral bioavailability | 11 to 18% |
| CCCCCCCC(=O)OC[C@H](NC(=O)[C@H](CO)NC(=O)CN)C(=O)N[C@@H](Cc1ccccc1)C(=O)N[C@@H](CC(C)C)C(=O)N[C@@H](CO)C(=O)N1CCC[C@H]1C(=O)N[C@@H](CCC(=O)O)C(=O)N[C@@H](Cc1cnc[nH]1)C(=O)N[C@@H](CCC(N)=O)C(=O)N[C@@H](CCCNC(=N)N)C(=O)N[C@H](C(=O)N[C@@H](CCC(N)=O)C(=O)N[C@@H](CCC(N)=O)C(=O)N[C@@H](CCCNC(=N)N)C(=O)N[C@@H](CCCCN)C(=O)N[C@@H](CCC(=O)O)C(=O)N[C@@H](CO)C(=O)N[C@@H](CCCCN)C(=O)N[C@@H](CCCCN)C(=O)N1CCC[C@H]1C(=O)N1CCC[C@H]1C(=O)N[C@@H](C)C(=O)N[C@@H](CCCCN)C(=O)N[C@@H](CC(C)C)C(=O)N[C@@H](CCC(N)=O)C(=O)N1CCC[C@H]1C(=O)N[C@@H](CCCNC(=N)N)C(=O)O)C(C)C |  | human, plasma | intravenous infusion, 1 µg/kg/h | relative to: baseline | peak concentration fold increase | 118 fold |

Some of these lines once more:
| SMILES | test | system | setting | scale | endpoint | result |
| --- | --- | --- | --- | --- | --- | --- |
| CSCC[C@H](NC(=O)[C@H](CC(N)=O)NC(=O)[C@@H](N)Cc1ccccc1)C(=O)N[C@@H](CCC(N)=O)C(=O)N[C@@H](C)C(=O)N[C@@H](CCC(N)=O)C(=O)N[C@@H](CCCNC(=N)N)C(=O)N[C@@H](CCCNC(=N)N)C(=O)N[C@@H](Cc1ccccc1)C(=O)N[C@@H](Cc1ccc(O)cc1)C(=O)N[C@@H](CCC(=O)O)C(=O)N[C@@H](C)C(=O)N[C@@H](CC(C)C)C(=O)N[C@@H](Cc1c[nH]cn1)C(=O)N[C@@H](CC(=O)O)C(=O)NCC(=O)NCC(=O)NCC(=O)NCC(=O)N[C@@H](CO)C(=O)N[C@@H](C)C(=O)N[C@@H](CCC(=O)O)C(=O)N[C@@H](C)C(=O)N[C@@H](CCC(=O)O)C(=O)N[C@@H](C)C(=O)N[C@@H](CCCCN)C(=O)N[C@@H](C)C(=O)N[C@@H](CCCCN)C(=O)N[C@@H](C)C(=O)N[C@@H](CCC(=O)O)C(=O)N[C@@H](C)C(=O)N[C@@H](CCC(=O)O)C(=O)N[C@@H](C)C(=O)N[C@@H](CCCCN)C(=O)N[C@@H](C)C(=O)N[C@@H](CCCCN)C(=O)O | TEM | PBS | 0.05 mg/mL |  | fibril width, first population | 56.3 ± 18.1 nm |
| CCCCCCCCCCCCCCC(=O)O.O=C1CCCC2C3CCCN4CCCC(CN12)C34 (stereo not drawn) | shake-flask | simulated body fluid | pH 7.4, 37 °C |  | log octanol-water partition coefficient | 0.93 |
| O=c1cc(-c2ccccc2)oc2c(Br)c(O)c(O)c(O)c12 |  | C57BL/6 mouse, plasma | oral, 50 mg/kg, single dose |  | MRT(0-inf) | 5.7 h |
| O=C(O)[c-]1cccc1.O=C(Oc1ccc(-n2cccc2)cc1)[c-]1cccc1.[Fe+2] | cyclic voltammetry | acetonitrile |  | relative to: Ag/AgCl | Epc | 901 mV |
